Assay results gathered from unrelated publications.
Each numbered part is a random draw from the data of one study; scales do not carry over between parts. ± marks the error that the study gave.

Sample 1 — read-out: binding; method: BLI
Target: Spike glycoprotein (Severe acute respiratory syndrome coronavirus 2, UniProt P0DTC2)
`C=C1C[C@@]23CC[C@H]4[C@@](C)(CCC[C@@]4(C)C(=O)O[C@@H]4O[C@H](CO)[C@@H](O)[C@H](O)[C@H]4O)[C@@H]2CC[C@]1(O[C@@H]1O[C@H](CO)[C@@H](O)[C@H](O)[C@H]1O)C3` gave a Kd of 1210 nM.
With `O=C1O[C@H]2[C@@H]3OC(=O)c4cc(O)c(O)c(O)c4-c4c(cc(O)c(O)c4O)C(=O)OC[C@H]2O[C@@H](OC(=O)c2cc(O)c(O)c(O)c2)[C@@H]3OC(=O)c2cc(O)c(O)c3c2[C@@H]2C1=CC(=O)[C@](O)(O3)C2(O)O` the Kd was 2030 nM.
With `C[C@@H]1O[C@@H](O[C@@H]2[C@@H](O)[C@H](OCCc3ccc(O)c(O)c3)O[C@H](CO)[C@H]2OC(=O)/C=C/c2ccc(O)c(O)c2)[C@H](O)[C@H](O)[C@H]1O` the Kd was 13900 nM.

Other studies, line by line
rep main protease: Replicase polyprotein 1ab, main protease (rep, Severe acute respiratory syndrome coronavirus 2, UniProt P0DTD1)
With `Nc1ncnc2c([C@@H]3N[C@H](CO)[C@@H](O)[C@H]3O)c[nH]c12` the inhibition was 6.1% (Lassa mammarenavirus; viral replication; HeLa, Josiah; 12.5 µM).
For `CC(C)CC(=O)N[C@H](C(=O)N[C@H](C(=O)N[C@@H](CC(C)C)[C@@H](O)CC(=O)N[C@@H](C)C(=O)N[C@@H](CC(C)C)[C@@H](O)CC(=O)O)C(C)C)C(C)C`, the inhibition was -0.884% (rep main protease; reporter gene (mKate2), inhibitor; 20 µM).
The serum amylase of `CC[C@H](C)[C@H](NC(=O)[C@H](CC(C)C)NC(=O)[C@H](Cc1c[nH]c2ccccc12)NC(=O)[C@H](CCC(N)=O)NC(=O)[C@@H](NC(=O)[C@H](Cc1ccccc1)NC(=O)[C@H](C)NC(=O)[C@H](CCCCNC(=O)COCCOCCNC(=O)COCCOCCNC(=O)CC[C@H](NC(=O)CCCCCCCCCCCCCCCCCCC(=O)O)C(=O)O)NC(=O)[C@H](CCC(N)=O)NC(=O)[C@H](C)NC(=O)[C@@H](NC(=O)[C@H](CCCCN)NC(=O)[C@H](CC(=O)O)NC(=O)[C@H](CC(C)C)NC(=O)C(C)(C)NC(=O)[C@@H](NC(=O)[C@H](CO)NC(=O)[C@H](Cc1ccc(O)cc1)NC(=O)[C@H](CC(=O)O)NC(=O)[C@H](CO)NC(=O)[C@@H](NC(=O)[C@H](Cc1ccccc1)NC(=O)[C@@H](NC(=O)CNC(=O)[C@H](CCC(=O)O)NC(=O)C(C)(C)NC(=O)[C@@H](N)Cc1ccc(O)cc1)[C@@H](C)O)[C@@H](C)O)[C@@H](C)CC)[C@@H](C)CC)C(C)C)C(=O)N[C@@H](C)C(=O)NCC(=O)NCC(=O)N1CCC[C@H]1C(=O)N[C@@H](CO)C(=O)N[C@@H](CO)C(=O)NCC(=O)N[C@@H](C)C(=O)N1CCC[C@H]1C(=O)N1CCC[C@H]1C(=O)N1CCC[C@H]1C(=O)N[C@@H](CO)C(N)=O` is reported as 70.3 ± 11.5 U/L (healthy subjects, single ascending dose; 0.25 mg, day 29).
For `C=C(C)C1(O)OC(=O)C=C1OC` (centres unmarked), the inhibition was -2.27% (rep main protease; reporter gene (Gaussia luciferase), inhibitor; HEK293T; 20 µM).
`Cn1cnc(Cn2c(=O)[nH]/c(=N\c3cc4cn(C)nc4cc3Cl)n(Cc3cc(F)c(F)cc3F)c2=O)n1`: “anaemia TEAE, Moderate severity” 0% (human, normal renal function; oral, 375 mg).

Repeated from above (other studies, line by line):
The serum amylase of `CC[C@H](C)[C@H](NC(=O)[C@H](CC(C)C)NC(=O)[C@H](Cc1c[nH]c2ccccc12)NC(=O)[C@H](CCC(N)=O)NC(=O)[C@@H](NC(=O)[C@H](Cc1ccccc1)NC(=O)[C@H](C)NC(=O)[C@H](CCCCNC(=O)COCCOCCNC(=O)COCCOCCNC(=O)CC[C@H](NC(=O)CCCCCCCCCCCCCCCCCCC(=O)O)C(=O)O)NC(=O)[C@H](CCC(N)=O)NC(=O)[C@H](C)NC(=O)[C@@H](NC(=O)[C@H](CCCCN)NC(=O)[C@H](CC(=O)O)NC(=O)[C@H](CC(C)C)NC(=O)C(C)(C)NC(=O)[C@@H](NC(=O)[C@H](CO)NC(=O)[C@H](Cc1ccc(O)cc1)NC(=O)[C@H](CC(=O)O)NC(=O)[C@H](CO)NC(=O)[C@@H](NC(=O)[C@H](Cc1ccccc1)NC(=O)[C@@H](NC(=O)CNC(=O)[C@H](CCC(=O)O)NC(=O)C(C)(C)NC(=O)[C@@H](N)Cc1ccc(O)cc1)[C@@H](C)O)[C@@H](C)O)[C@@H](C)CC)[C@@H](C)CC)C(C)C)C(=O)N[C@@H](C)C(=O)NCC(=O)NCC(=O)N1CCC[C@H]1C(=O)N[C@@H](CO)C(=O)N[C@@H](CO)C(=O)NCC(=O)N[C@@H](C)C(=O)N1CCC[C@H]1C(=O)N1CCC[C@H]1C(=O)N1CCC[C@H]1C(=O)N[C@@H](CO)C(N)=O` is reported as 70.3 ± 11.5 U/L (healthy subjects, single ascending dose; 0.25 mg, day 29).
